Measured values gathered from unrelated publications.
“And” joins repeats or separate records; there may be more than shown. Numbers after ± are the reported error.

C[C@H](CCC(=O)NCCS(=O)(=O)O)[C@H]1CC[C@H]2[C@@H]3CC[C@@H]4C[C@H](O)CC[C@]4(C)[C@H]3CC[C@]12C has a proliferation increase of 42% (rat PCK cystic cholangiocytes; cell confluence; 20 µM, 24 h; relative to: untreated).
CC/C(=N\NC(=O)NCc1cccc(O)c1)c1ccc(O)c(C)c1O gave a log ratio of 4.52 (SK-OV-3; gene expression, microarray, measured: PLK2; 10 µM, 24 h; relative to: DMSO).
For Cc1nc2ccc(OCc3ccc(C(F)(F)F)cc3)cc2[nH]1, the viability was 174 ± 11.3% (sample A patient iPSC-derived NPCs; MTS; 10 µM, 24 h; relative to: vehicle).
CCCCc1nc(Cl)c(CO)n1Cc1ccc(-c2ccccc2-c2nn[nH]n2)cc1 — result for “log2 fold change”: -1.83 (human PBMC; RNA-seq, measured: CD36 mRNA; 10 µg/mL, 24 h; relative to: untreated control).
Under “fitted top MyBP-C level”, CCn1c(=O)/c(=C2\Sc3cc(Cl)ccc3N2C)s/c1=C\c1scc[n+]1Cc1ccccc1.[Cl-] is recorded as 138% (iPSC-derived cardiomyocytes; concentration-response fit; concentration not given; relative to: vehicle).
For Cn1cc(-c2ccc(-c3cncc(Cl)c3N3CCC4(CCNC4=O)CC3)cc2)cn1, “fold change in expression” read -3 (COLO 205; microarray, measured: C1orf61; concentration not given, 2 h, gene set CROC-4; relative to: untreated cells).
COc1cc2c(NC3CCN(CC4CCCCC4)CC3)nc(N3CCCN(C(C)C)CC3)nc2cc1OCCCN1CCCCC1 has a viability of 88.8% (OCI-Ly1; 1 µM, 120 h).
For CN(C)C(=O)CCc1nc(-c2ccccc2)c(-c2ccccc2)o1, the necrosis was 0.86 ± 0.1 (COS-7; 100 µM, 24 h, 0.1% DMSO, unit not given; relative to: control).
The EC50 of COc1cnc2cccc(N3CCc4c(cc(Cn5ccnc5C)cc4-c4cn(C)nc4C(F)(F)F)C3=O)c2c1 is reported as greater than 30 µM (SNU878; cell growth, inhibitor; 120 h).
The viability of Oc1cc(O)cc(/C=C/c2ccc(O)c(O)c2)c1 is reported as 172% (OCI-Ly1; 0.1 µM, 120 h).
COc1ccc(N)cc1-c1c[nH]c2ncc(-c3cncc(C(=O)N(C)C)c3)cc12 gave a GI50 of 0.157 ± 0.0517 µM (Ba/F3 BCR-ABL T315I; cell proliferation; 72 h).
For COc1cc2ncnc(Nc3ccc(Oc4ccccc4)c(C)c3C)c2cc1OC.Cl, “Bliss synergy score” read -90.9% (COLO 205 (BRAF V600E); cell viability; concentration not given, 72 h, with: trametinib; direction not given).
For Nc1ncnc2c1ncn2[C@@H]1O[C@H](COP(=O)(O)OP(=O)(O)OP(=O)(O)O)[C@@H](O)[C@H]1O, the IL-1beta release was 20.5 pg/mL and 21.4 pg/mL and 25.3 pg/mL (PMA-differentiated Pam3CSK4-primed THP-1 CASP1 knockout; inducer, ELISA; concentration not given).
The tissue uptake of CC(C)C[C@H](NC(=O)C[C@H](O)[C@H](CC(C)C)NC(=O)[C@H](Cc1c[nH]cn1)NC(=O)CNC(=O)[C@@H](NC(=O)[C@H](C)NC(=O)[C@H](Cc1c[nH]c2ccccc12)NC(=O)[C@H](CCC(N)=O)NC(=O)[C@@H](Cc1ccccc1)NC(=O)COCCOCCNC(=O)CCC(C(=O)O)N1CCN(CC(=O)O)CCN(CC(=O)O)CCN(CC(=O)O)CC1)C(C)C)C(N)=O (stereo partly shown) [lutetium-177 labelled] is reported as 0.9 ± 0.8 %ID/g (BALB/c nu/nu mice, lung; intravenous, 500 pmol, 1 h, with: PA 300 µg).
With O=C1c2cccc(O)c2C(=O)c2c(O)cc(CO)cc21 the cell viability was 48.1 ± 1.4% (HepaRG co-cultured with HK-2; MTT; 133.33 µM, 48 h; relative to: untreated control).
With Cn1c(Nc2nc3ccc(C(F)(F)F)cc3s2)nc2cc(C(=O)NCCOCCO)ccc21 the fold change was 1.62 (SH-SY5Y; RNA-seq, measured: HSPB7 mRNA; 5 µM, 5 h; relative to: untreated cells).
C=CC(=O)N1CCC(COCC(=O)N2CCN(c3nc(-c4cnc(N)nc4C(F)F)nc(N4CCOC[C@@H]4C)n3)CC2)CC1 has a GR50 of 5.5 nM (HCC1954; resazurin growth rate inhibition; 72 h).
The APD90 prolongation of CCN(CC)CCCC(C)Nc1ccnc2cc(Cl)ccc12 (stereo not shown) is reported as 121% and 61.1% and 136% and 97.8% (hiPSC-derived ventricular cardiomyocytes; current clamp, externally paced; 5 µM; relative to: pre-drug control).
O=C(O)c1ccc(C(=O)O)cc1 has an Emax of 12.4% (human cells; reporter gene, agonist, luciferase reporter; relative to: positive control).
The phototherapeutic index of [Cl-].[Cl-].[Ru+2].c1cnc2c(c1)ccc1cccnc12.c1cnc2c(c1)ccc1cccnc12.c1csc(-c2ccc(-c3ccc(-c4ccc(-c5nc6c7cccnc7c7ncccc7c6[nH]5)s4)s3)s2)c1 is reported as 985 (SK-MEL-28; 1% O2).
Cc1nc2cc(NCc3ccc(F)cc3)ccc2s1 — result for “reduction in viability”: 2% (sample A patient iPSC-derived NPCs; MTS; 10 µM, 24 h).
For CCCCN1C[C@H](O)[C@@H](O)[C@@H](O)[C@H]1CO, the IC50 was 24 µM (sample BA patient fibroblasts; Gb3 level lowering, LC-MS/MS, measured: Gb3 d18:1/18:0; 216 h).
With Cc1cc(C)c(CNC(=O)c2cc(-c3ccc(CN4CCOCC4)cc3)cc3c2cnn3C2CCCC2)c(=O)[nH]1 the viability was 187% (OCI-Ly1; 0.1 µM, 120 h).
For Cc1cc(Nc2ncc(Cl)c(Nc3ccccc3S(=O)(=O)C(C)C)n2)c(OC(C)C)cc1C1CCNCC1, “log2 fold change” read -2.14 (CLB-GE; phosphoproteomics LC-MS/MS, measured: SHC2 phosphorylation; 200 nM, 60 min; relative to: untreated).
For CCc1cnc(N2CCC(c3nc(COc4ccc(-n5cnnn5)cc4)cs3)CC2)nc1, “log2 fold change” read -0.208 (HEK293T; RNA-seq, measured: HSPB1 mRNA; 10 µM, 6 h; relative to: vehicle).
For Cc1ccc(NC(=O)CCCCCC(=O)Nc2ccccc2N)cc1, the viability was 141% (OCI-Ly1; 1 µM, 120 h).
Cc1c(C(=O)O)ccc2c3n(nc12)[C@@H]1[C@H](C3)N(CC2CC2)[C@@]2(C(=O)Nc3cc(Cl)ccc32)[C@H]1c1cccc(Cl)c1F has an IC50 of 0.00045 µM (Rh18; cell growth, alamarBlue; unbound, 4.5% of total).
CC(C)NCCCn1c(Sc2cc3c(cc2I)OCO3)nc2c(N)ncnc21 — result for “fitted bottom MyBP-C level”: 18.6% (iPSC-derived cardiomyocytes; concentration-response fit; concentration not given; relative to: vehicle).
For Cc1[nH]c2ccccc2c1CCNCc1ccc(/C=C/C(=O)NO)cc1, the viability was 0.374% (OCI-Ly1; 1 µM, 120 h).
C#CCCC1(CCC(=O)N2[C@@H](c3cccc(F)c3)c3[nH]c4ccccc4c3C[C@H]2C(=O)OC)N=N1 — result for LC3 puncta: “decreased” (HeLa stably expressing GFP-LC3; autophagy; concentration not given, 4 h).
With COc1cccc2c(Nc3ccc4[nH]c(C(=O)N/N=C/c5ccc(SC)cc5)cc4c3)cc(C)nc12 the metabolic activity was 0.41 ± 0.01 (COS-7; WST-8; 10 µM, 24 h, 0.1% DMSO, unit not given; relative to: vehicle control).
The cell viability of O=C(O)c1cc(O)c2c(c1)C(=O)c1cccc(O[C@@H]3O[C@H](CO)[C@@H](O)[C@H](O)[C@H]3O)c1C2=O is reported as 45.7 ± 5.41% (HepaRG co-cultured with HK-2; MTT; 266.67 µM, 48 h; relative to: untreated control).
Under “fitted bottom MyBP-C/MYH ratio”, C[n+]1cc2c3c(ccc2c2ccc4cc5c(cc4c21)OCO5)OCO3 is recorded as 0% (iPSC-derived cardiomyocytes; concentration-response fit; relative to: vehicle).
With CCn1cc(-c2cc(Cn3ccnc3)cc3c2CCN([C@H](c2cc(OC)ccn2)C2CC2)C3=O)c(C(F)(F)F)n1 the EC50 was 13.7 µM (SNU308; cell growth; 120 h).
The viability of CC(=O)Nc1ccc(NC(=S)NC(=O)c2ccc(C(C)(C)C)cc2)cc1 is reported as 166% (OCI-Ly1; 0.1 µM, 120 h).
With CC(C)NCC(O)c1ccc(O)c(O)c1 (stereo not shown) the sarcomere length was 1.8 µm (mouse ventricular cardiomyocytes; dose not given, 0.011 s).
With Cc1cccc(-c2[nH]c(CNc3ccccc3F)nc2-c2ccc3ncnn3c2)n1 the XTT absorbance was 0.6 E-1 and 0.8 E-1 and 1.1 E-1 (pomalidomide-resistant MM1.S cells; XTT; 4 µM; higher = more viable cells).
The GI50 of O=C(/C=C/C=C/C=C/C1CCCCC1)NC1=C[C@@](O)(/C=C/C=C/C=C/C(=O)NC2=C(O)CCC2=O)[C@@H]2O[C@@H]2C1=O is reported as 17.4 µM (SW1088; cell growth, CellTiter-Glo; 78 h).
The percent change of NC(=O)c1cnc2[nH]ccc2c1N[C@@H]1[C@@H]2CC3C[C@H]1C[C@@](O)(C3)C2 is reported as 0.42% (CD8+ effector T cells, flow cytometry; Japanese humans, peripheral blood; 20 mg single dose; relative to: baseline).
CCCCN1CCN(c2ccc3[nH]c(-c4ccc5[nH]c(-c6ccc(C(F)(F)F)cc6)nc5c4)nc3c2)CC1 has a growth percent of -84.9% (786-0; cell growth, NCI-60 SRB; 10 µM, 48 h).
The cell growth of O=C(Nc1nnc2n3c(Cc4ccccc4)n[nH]c3nc(-c3ccc(Cl)cc3)c1-2)c1ccccc1 is reported as 110% (A498; SRB; 10 µM, NCI60 single-dose screen; relative to: untreated).
C[C@H]1[C@H](C)CC[C@]2(C)CC[C@]3(C)C(=CC(=O)[C@@H]4[C@@]5(C)CC[C@@H](O)[C@](C)(C(=O)NCc6cn(-c7cccc(Br)c7)nn6)[C@@H]5CC[C@]43C)[C@H]12: “PD-1 positive cells” 20.2% (human PBMCs; flow cytometry; 10 µM; relative to: CD8+ T cells).
For CCCc1n(Cc2ccc3ccccc3n2)cc[n+]1Cc1ccc2ccccc2n1, the GI50 was no more than 12.5 µM (NCI60 NSCLC cell lines; cell growth).

Some of these lines once more:
The APD90 prolongation of CCN(CC)CCCC(C)Nc1ccnc2cc(Cl)ccc12 (stereo not shown) is reported as 121% and 61.1% and 136% and 97.8% (hiPSC-derived ventricular cardiomyocytes; current clamp, externally paced; 5 µM; relative to: pre-drug control).
O=C(O)c1ccc(C(=O)O)cc1 has an Emax of 12.4% (human cells; reporter gene, agonist, luciferase reporter; relative to: positive control).
The phototherapeutic index of [Cl-].[Cl-].[Ru+2].c1cnc2c(c1)ccc1cccnc12.c1cnc2c(c1)ccc1cccnc12.c1csc(-c2ccc(-c3ccc(-c4ccc(-c5nc6c7cccnc7c7ncccc7c6[nH]5)s4)s3)s2)c1 is reported as 985 (SK-MEL-28; 1% O2).
